# Measured values from different studies.
# Compare with care: the assays were run in different laboratories. Values joined by “and” are separate records of one study, mostly repeats; a detail may differ. Numbers after ± are the reported error.
Molecule,assay,system,conditions,IC50
HPVHHYQ-NH2 (C-amide),"in vitro translation, inhibitor, luciferase reporter","peptide, Escherichia coli S30 extract",37 °C,~600 µM
NC[C@@H]1O[C@H](O[C@H]2[C@@H](O)[C@H](O[C@@H]3[C@@H](O)[C@H](N)C[C@H](N)[C@H]3O[C@H]3O[C@H](CO)[C@@H](O)[C@H](O)[C@H]3N)O[C@@H]2CO)[C@H](N)[C@@H](O)[C@@H]1O,"[14C]-phenylalanine incorporation, inhibitor, (UUU)12-directed cell-free translation","M. smegmatis 70S ribosomes, human cytosolic hybrid decoding site","60 min, 37 °C",> 500 µM
CCCCCC(O)C=CC=O (stereo not shown),"vesicular dopamine uptake, inhibitor",rat striatal synaptic vesicles,"15 min, with: [3H]dopamine",60 µM and 56 µM
NC[C@H]1O[C@H](O[C@H]2[C@H](O)[C@@H](O[C@H]3O[C@H](CO)[C@@H](O)[C@H](N)[C@H]3O)[C@H](N)C[C@@H]2N)[C@H](N)C[C@@H]1O,"[14C]-phenylalanine incorporation, inhibitor, (UUU)12-directed cell-free translation","M. smegmatis 70S ribosomes, human cytosolic hybrid decoding site","60 min, 37 °C",> 500 µM
O=C(O)CC[C@H](NC(=O)CNC(=O)[C@@H]1C[C@@H](O)CN1)C(=O)N[C@@H](Cc1ccccc1)C(=O)NCC(=O)O,"platelet aggregation, inhibitor",rat platelet-rich plasma,"5 min preincubation, 37 °C, with: ADP 0.1 mM",277 µM
O=CC1([C@@H]2CC(=O)N(c3ccccc3)C2=O)CCCCC1,DPPH radical scavenging,,,298 µM
CO/C(=C/C(N)=O)[C@H](C)[C@H](/C=C/c1csc(-c2csc([C@@H](C)/C=C/C=C/C(C)C)n2)n1)OC,"succinate-dependent oxygen uptake, inhibitor",rat liver mitochondria,with: succinate 15 mM,0.0165 µM
CCNC(=O)[C@H]1O[C@@H](n2cnc3c(N)nc(NCCc4ccc(CCC(=O)NCCN)cc4)nc32)[C@H](O)[C@@H]1O,"platelet aggregation, inhibitor",human washed platelets,with: ADP 5 µM,0.0359 ± 0.017 µM
CN[C@@H]1[C@@H](O)[C@@H](O[C@@H]2[C@@H](O)[C@H](O[C@H]3O[C@H]([C@@H](C)O)[C@@H](O)[C@H](O)[C@H]3N)[C@@H](N)C[C@H]2N)OC[C@]1(C)O,"luciferase synthesis, inhibitor, coupled transcription-translation","M. smegmatis 70S ribosomes, human hybrid","60 min, 37 °C",0.8 µM
C[C@@H]1C[C@@H]([C@H](O)CC2CC(=O)NC(=O)C2)C(=O)[C@@H](C)C1,"translation, inhibitor, item: firefly luciferase reporter",Krebs-2 cell lysate,,~0.5 µM
O=C1C(Cl)=C(Nc2ccc(S(=O)(=O)Nc3ccccn3)cc2)C(=O)c2ccccc21,"cell viability, MTT","primary multiple myeloma cells, patients",72 h,1.6 ± 0.32 µM
N[C@@H](CC(=O)O)C(=O)N[C@@H](CCC(=O)O)C(=O)NCC(=O)N1CCC[C@H]1C(=O)O,"platelet aggregation, inhibitor",rat platelet-rich plasma,"5 min preincubation, 37 °C, with: ADP 0.1 mM",290 µM
C=C(C)[C@@H]1CCC(CO)=C[C@H]1c1c(O)cc(CCCCC)cc1O,"nicotine C-oxidation to cotinine, inhibitor",pooled human liver microsomes,with: nicotine 500 µM,2 ± 0.49 µM
CNC(C)C1CCC(N)C(OC2C(N)CC(N)C(OC3OCC(C)(O)C(NC)C3O)C2O)O1 (stereo not shown),"[14C]-phenylalanine incorporation, inhibitor, (UUU)12-directed cell-free translation","M. smegmatis 70S ribosomes, human cytosolic hybrid decoding site","60 min, 37 °C",> 500 µM
NC[C@@H]1O[C@H](O[C@H]2[C@@H](O)[C@H](O[C@@H]3[C@@H](O)[C@H](N)C[C@H](N)[C@H]3O[C@H]3O[C@H](CN)[C@@H](O)[C@H](O)[C@H]3N)O[C@@H]2CO)[C@H](N)[C@@H](O)[C@@H]1O,"prokaryotic translation, inhibitor, luciferase reporter",Escherichia coli S30 extract,,0.139 µM
C=C(C)[C@@H]1CCC(C)=C[C@H]1c1c(O)cc(CCCCC)cc1O,"nicotine demethylation to nornicotine, inhibitor",pooled human liver microsomes,with: nicotine 500 µM,0.5 ± 0.11 µM
